Results of several laboratories.
Protocols differ between the studies behind these lines. “And” joins repeats or separate records; there may be more than shown. ± gives the spread as reported.
Genome polyprotein NS3 helicase domain: Genome polyprotein, NS3 helicase domain (Hepatitis C virus genotype 1b, UniProt Q9WMX2)
WD repeat-containing protein 91 WD40 domain, residues 392–747: WD repeat-containing protein 91, WD40 domain, residues 392–747 (Homo sapiens, UniProt A4D1P6)
WD repeat-containing protein 91: WD repeat-containing protein 91 (Homo sapiens, UniProt A4D1P6)

SMILES	target	test	system	conditions	how to read	quantity	value
O=c1nc(SCc2ccc(C(F)(F)F)cc2)nc(SCc2csc3ccc(Cl)cc23)[nH]1	DNA topoisomerase 2-alpha (TOP2A, Homo sapiens, UniProt P11388)	DNA relaxation	–	15.6 µM, replicate 1	–	relaxed DNA	0%
CC(C)COC(=O)OCN1C(=O)CN(CCN2CC(=O)N(COC(=O)OCC(C)C)C(=O)C2)CC1=O	Genome polyprotein NS3 helicase domain	DNA binding, inhibitor	hepatitis C virus	100 µM, with: Cy5-dT15 DNA	–	inhibition	1%
Nc1ccc(C(=O)O)cc1	BEST1, with wild-type BEST1 (Homo sapiens, UniProt O76090, A10T)	whole-cell patch clamp	HEK293 co-expressing WT and A10T mutant	concentration not given, membrane potential -20 mV	–	current density	-5.55 pA/pF and -4.19 pA/pF and -5.93 pA/pF and -9.32 pA/pF and -2.05 pA/pF and -2.75 pA/pF
CC(=O)N[C@H](C(=O)N[C@@H](CC(N)=O)C(=O)N[C@@H](CCCCN)C(=O)N1CCC[C@H]1C(=O)N[C@@H](CC(C)C)C(=O)N1CCC[C@H]1C(=O)N1CCC[C@H]1C(=O)N[C@@H](CC(C)C)C(=O)N1CCC[C@H]1C(=O)N[C@H](C(=O)N[C@@H](C)C(N)=O)C(C)C)C(C)C	Tyrosine-protein kinase Fyn, SH3 domain (FYN, Homo sapiens, UniProt P06241)	binding, isothermal titration calorimetry	50 mM sodium phosphate, 100 mM NaCl	concentration not given, pH 7.0, 25 °C	–	enthalpy change	-8.461 ± 0.0239 kcal/mol
O=C(O)[C@@H]1CN(C(=O)c2cc(-c3ccccc3)c[nH]2)C[C@H]1c1ccc(Cl)cc1	WD repeat-containing protein 91 WD40 domain, residues 392–747	SPR	–	45 µM	–	binding	30% and 42%
CCCN1C[C@H](CSC)C[C@@H]2c3cccc4[nH]cc(c34)C[C@H]21	Glutamate receptor 2 (Homo sapiens, UniProt P42262)	ion current, agonist, SyncroPatch patch clamp	HEK293	10 µM	–	activation	3%
Nc1ncnc2c1ncn2[C@@H]1O[C@H](COP(=O)(O)CP(=O)(O)OP(=O)(O)O)[C@@H](O)[C@H]1O	P2X purinoceptor 1 (P2RX1, Homo sapiens, UniProt P51575, K136W)	calcium influx	–	316 nM	relative to: ionomycin response	calcium influx	71.3% and 86.5% and 85%
CC[C@@H]1[C@H](F)C(=O)N[C@@H]1COc1nccc2cc(C(N)=O)c(OC)cc12	Dual specificity mitogen-activated protein kinase kinase 4 (MAP2K4, Homo sapiens, UniProt P45985)	ATP-site probe binding, ActivX profiling	THP-1 cell lysate	0.04 mM, Lys2 site	–	inhibition	8%
COc1cc(/C=C/C(=O)C(=Cc2cccc(O)c2)C(=O)/C=C/c2ccc(O)c(OC)c2)ccc1O	haemin	binding, isothermal titration calorimetry	–	pH 7.4, 37 °C	–	ΔS	-212 ± 7.56 J/(mol·K)
Cc1ccc(CN(C(=O)c2cc3cccn3cn2)C2CCc3ccccc32)cc1 (centres unmarked)	WD repeat-containing protein 91 WD40 domain, residues 392–747	SPR	–	45 µM	–	binding	43% and 95%
CCCCC/C=C/C(=O)CCc1ccc(O)c(OC)c1	Estrogen receptor (ESR1, Homo sapiens, UniProt P03372)	array formation	PRL-HeLa	–	relative to: EC50 ERβ over EC50 ERα	selectivity ratio	0.731
Nc1ccn([C@H]2C[C@H](O)[C@@H](COP(=O)(O)OP(=O)(O)OP(=O)(O)O)O2)c(=O)n1	DNA polymerase lambda (POLL, Homo sapiens, UniProt Q9UGP5, Y505A)	substrate, primer extension gel	–	Y505A mutant, AP-site template	–	Km	0.03 µM
Cl.Clc1ccc(Cn2c(CN3CCCC3)nc3ccccc32)cc1	Genome polyprotein NS3 helicase domain	DNA binding, inhibitor	hepatitis C virus	100 µM, with: Cy5-dT15 DNA	–	inhibition	0%
CCN1CCN(c2cc(N3CCN(CC)CC3)nc(NCCNc3ccnc4cc(Cl)ccc34)n2)CC1	Nuclear receptor subfamily 4 group A member 3, ligand-binding domain (Homo sapiens, UniProt Q92570)	reporter gene, Gal4 hybrid reporter	–	10 µM	relative to: vehicle	activation	1.76 ± 0.09 fold
Cc1sc(NC(=O)c2ccccc2I)c(C(=O)O)c1C	Voltage-gated potassium channel, KQT; KCNQ2(Kv7.2)/KCNQ3(Kv7.3) (KCNQ3/KCNQ2, Homo sapiens, UniProt O43525+O43526)	G(V) shift, activator, two-electrode voltage clamp	Xenopus oocytes	pH 7.4, up to 100 µM, at -17.2 mV	–	EC50	197 µM
COC(=O)[C@@H]1CCCN1Cc1cn(-c2ccc(C(=O)N3CCC(C#N)CC3)cc2)nn1	WD repeat-containing protein 91 WD40 domain, residues 392–747	SPR	–	45 µM	–	binding	2% and -7%
Nc1ccc(C(=O)O)cc1	N-alpha-acetyltransferase 80 (NAA80, Homo sapiens, UniProt Q93015)	substrate, DTNB	–	2 mM, 30 min, 37 °C, with: acetyl-CoA 500 µM	–	product formation	-4.12 µM
CCS(=O)(=O)N1CC(CC#N)(n2cc(-c3ncnc4[nH]ccc34)cn2)C1	Alpha-1-acid glycoprotein 1 (ORM1, Homo sapiens, UniProt P02763)	fluorescence quenching	–	303 K	–	bimolecular quenching constant	4.75e+12 ± 2.6e+11 M⁻¹ s⁻¹
CC[C@H](C)[C@H](NC(=O)[C@H](CCCCN)NC(=O)CNC(=O)[C@@H](NC(=O)[C@@H](NC(=O)[C@H](CCSC)NC(=O)[C@H](Cc1c[nH]cn1)NC(=O)CN)[C@@H](C)O)C(C)C)C(=O)N[C@@H](Cc1ccc(O)cc1)C(=O)N[C@@H](C)C(=O)N[C@@H](C)C(=O)N[C@@H](CCSC)C(=O)N[C@@H](CCSC)C(=O)N[C@@H](C)C(=O)N[C@@H](CCSC)C(=O)N[C@@H](CCC(=O)O)C(=O)N[C@@H](Cc1ccc(O)cc1)C(=O)N[C@@H](Cc1ccc(O)cc1)C(=O)N[C@@H](CCCNC(=N)N)C(=O)N[C@@H](CCC(N)=O)C(=O)N[C@@H](CO)C(=O)N[C@@H](CCCCN)C(=O)N[C@@H](C)C(=O)N[C@@H](CCCCN)C(=O)N[C@@H](CCCCN)C(=O)N[C@@H](CC(C)C)C(=O)N[C@@H](CCC(N)=O)C(=O)N[C@@H](C)C(=O)N[C@@H](CCSC)C(=O)N[C@@H](CCCNC(=N)N)C(=O)O	Calmodulin-1, Ca2+-bound C-lobe (CALM1, Homo sapiens, UniProt P0DP23)	binding, isothermal titration calorimetry	–	pH 7.4, 15 °C, Ca2+-bound C-lobe, with: CaV2.1 IQ peptide	–	stoichiometry	0.9 ± 0.01
COc1ccc(CCCOC(Cn2ccnc2)c2ccc(OC)cc2)cc1 (centres unmarked)	Genome polyprotein NS3 helicase domain	DNA binding, inhibitor	hepatitis C virus	100 µM, with: Cy5-dT15 DNA	–	inhibition	0%
O=C(NC1CCCS(=O)(=O)c2ccccc21)c1ccc2nc(O)cnc2c1 (centres unmarked)	WD repeat-containing protein 91	binding, SPR steady state	–	0.1172 µM	–	SPR response	0.813 RU
COc1ccc2c(c1)CC[C@@H]1[C@@H]2CC[C@]2(C)[C@@H](NCCCCCCN3C(=O)C=CC3=O)CC[C@@H]12	Genome polyprotein NS3 helicase domain	DNA binding, inhibitor	hepatitis C virus	100 µM, with: Cy5-dT15 DNA	–	inhibition	5%
O=C(O)c1ccc(Nc2ncc3c(n2)-c2ccc(Cl)cc2C(c2c(F)cccc2F)=NC3)cc1	human DYRK2(h)	kinase activity	–	1 µM	–	remaining activity	98%
CC(=O)N[C@@H](CC(N)=O)C(=O)N[C@@H](CC(C)C)C(=O)NCC(=O)N[C@@H](CCCCN)C(=O)N[C@@H](Cc1c[nH]cn1)C(=O)N[C@@H](CCC(=O)O)C(=O)N[C@@H](CCCCN)C(=O)N[C@@H](Cc1ccccc1)C(=O)N[C@@H](CO)C(=O)N[C@@H](CCC(=O)O)C(=O)N[C@H](C(=O)N[C@@H](CC(C)C)C(=O)N[C@@H](CCCCN)C(=O)N[C@@H](CCCNC(=N)N)C(=O)N[C@@H](CC(C)C)C(=O)N[C@@H](CCCNC(=N)N)C(=O)N[C@@H](CC(C)C)C(=O)N[C@@H](CCC(N)=O)C(N)=O)C(C)C	Calmodulin-1, N-lobe fragment (CALM1, Homo sapiens, UniProt P0DP23)	ITC	–	concentration not given, N-lobe, with: 1 mM CaCl2	–	binding stoichiometry	0.99
CCn1c(=O)[nH]c2cc(C(=O)NC(c3ccc(F)cc3)c3cnn(C)c3)ccc2c1=O (centres unmarked)	WD repeat-containing protein 91	binding, SPR steady state	–	0.9375 µM	–	SPR response	8.64 RU
COc1cc(CC(=O)O)ccc1O	Genome polyprotein NS3 helicase domain	DNA binding, inhibitor	hepatitis C virus	100 µM, with: Cy5-dT15 DNA	–	inhibition	1%
O=C1Nc2c(ccc(Cl)c2Cl)C1=NO	KCNN4/CALM1 (Homo sapiens, UniProt O15554+P0DP23)	inside-out patch clamp	–	1 µM	–	Hill coefficient for calcium	2
O=C(O)/C=C(/CC(=O)O)C(=O)O	Egl nine homolog 1 (EGLN1, Homo sapiens, UniProt Q9GZT9)	inhibitor, CPMG NMR displacement	–	400 µM, pH 7.5, with: 10 µM reporter ligand	–	binding	no binding
O=C(COP(=O)(O)O)[C@@H](O)[C@H](O)[C@H](O)COP(=O)(O)O	Structural maintenance of chromosomes protein 1A (Homo sapiens, UniProt Q14683)	thermal proteome profiling, measured: SMC1A	HepG2 cell lysate	concentration not given, 57 over 37 °C, mean	relative to: compound over control	thermal stability ratio	0.632

Some of these lines once more:
SMILES	target	test	system	conditions	how to read	quantity	value
CCn1c(=O)[nH]c2cc(C(=O)NC(c3ccc(F)cc3)c3cnn(C)c3)ccc2c1=O (centres unmarked)	WD repeat-containing protein 91	binding, SPR steady state	–	0.9375 µM	–	SPR response	8.64 RU
COc1cc(CC(=O)O)ccc1O	Genome polyprotein NS3 helicase domain	DNA binding, inhibitor	hepatitis C virus	100 µM, with: Cy5-dT15 DNA	–	inhibition	1%
